# Measurements of several laboratories.
# Values joined by “and” are separate records of one study, mostly repeats; a detail may differ. ± gives the spread as reported.
# Technique: steady-state kinetics
# B1: enzyme N1029G (Limosilactobacillus reuteri, UniProt Q5SBN3); chain INGQQYYIDPTTGQPRKNFLLQNGNDWIYFDKDTGAGTNALKLQFDKGTISADEQYRRGNEAYSYDDKSIENVNGYLTADTWYRPKQILKDGTTWTDSKETDMRPILMVWWPNTVTQAYYLNYMKQYGNLLPASLPSFSTDADSAELNHYSELVQQNIEKRISETGSTDWLRTLMHEFVTKNSMWNKDSENVDYGGLQLQGGFLKYVNSDLTKYANSDWRLMNRTATNIDGKNYGGAEFLLANDIDNSNPVVQAEELNWLYYLMNFGTITGNNPEANFDGIRVDAVDGVDVDLLSIARDYFNAAYNMEQSDASANKHINILEDWGWDDPAYVNKIGNPQLTMDDRLRNAIMDTLSGAPDKNQALNKLITQSLVNRANDNTENAVIPSYNFVRAHDSNAQDQIRQAIQAATGKPYGEFNLDDEKKGMEAYINDQNSTNKKWNLYNMPSAYTILLTNKDSVPRVYYGDLYQDGGQYMEHKTRYFDTITNLLKTRVKYVAGGQTMSVDKNGILTNVRFGKGAMNATDTGTDETRTEGIGVVISNNTNLKLNDGESVVLHMGAAHKNQKYRAVILTTEDGVKNYTNDTDAPVAYTDANGDLHFTNTNLDGQQYTAVRGYANPDVTGYLAVWVPAGAADDQDARTAPSDEAHTTKTAYRSNAALDSNVIYEGFSNFIYWPTTESERTNVRIAQNADLFKSWGITTFELAPQYNSSKDGTFLDSIIDNGYAFTDRYDLGMSTPNKYGSDEDLRNALQALHKAGLQAIADWVPDQIYNLPGKEAVTVTRSDDHGTTWEVSPIKNVVYITNTIGGGEYQKKYGGEFLDTLQKEYPQLFSQVYPVTQTTIDPSVKIKEWSAKYFNGTNILHRGAGYVLRSNDGKYYNLGTSTQQFLPSQLSVQDNEGYGFVKEGNNYHYYDENKQMVKDAFIQDSVGNWYYFDKNGNMVANQSPVEISSNGASGTYLFLNNGTSFRSGLVKTDAGTYYYDGDGRMVRNQTVSDGAMTYVLDENGKLVSESFDSSATEAHPLKPGDLNGQK
# B2: protein (Rhodopseudomonas palustris, UniProt Q6N3R9); chain MSNVRVLATDLAFPEGPVVMPDGSVVLVEIRAQQLTRVWPDGRKEVVAKVPGGPNGAALGPDGKMYICNNGGFGWFPSRGTMMPGAPAPHEYIGGSIQRVDLQSGEVETLFDKCGEHPLKGPNDLVFDKHGGLWFTDLGKRRARDMDVGAAYYIKPGMTEITEQVFGTLPLNGIGLSPDEATMYAAETPTGRLWAFDLSGPGEVKPRDVIYRGEKGKPICGLGGYQMFDSLAVEASGNVCVATLVSGCISVIAPDGTLVEQVPTGDRVTTNIAFGGPDLKTAYITLSGKGELIAMDWSRPGLPLNFLNK
# B3: protein N172D (Rhodopseudomonas palustris, UniProt Q6N3R9); chain MSNVRVLATDLAFPEGPVVMPDGSVVLVEIRAQQLTRVWPDGRKEVVAKVPGGPNGAALGPDGKMYICNNGGFGWFPSRGTMMPGAPAPHEYIGGSIQRVDLQSGEVETLFDKCGEHPLKGPNDLVFDKHGGLWFTDLGKRRARDMDVGAAYYIKPGMTEITEQVFGTLPLDGIGLSPDEATMYAAETPTGRLWAFDLSGPGEVKPRDVIYRGEKGKPICGLGGYQMFDSLAVEASGNVCVATLVSGCISVIAPDGTLVEQVPTGDRVTTNIAFGGPDLKTAYITLSGKGELIAMDWSRPGLPLNFLNK
# B4: blaNDM-1 (Klebsiella pneumoniae, UniProt C7C422); chain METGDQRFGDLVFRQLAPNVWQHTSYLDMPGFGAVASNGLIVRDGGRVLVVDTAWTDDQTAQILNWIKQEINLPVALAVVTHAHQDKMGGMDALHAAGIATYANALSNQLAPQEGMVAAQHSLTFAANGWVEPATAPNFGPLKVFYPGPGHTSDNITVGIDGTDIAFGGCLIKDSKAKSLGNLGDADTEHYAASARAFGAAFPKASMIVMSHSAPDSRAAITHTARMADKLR
# B5: enzyme L163H/N249W (Thermobifida fusca, UniProt Q47RK4); chain MTDVYILDAVRTPFGRYGGALSGIRPDDLAAHVLRALAERSPGLDPAAVDDVFFGDANGAGEDNRNVARMAALLAGWPTSVPGVTLNRLCGSGMESVIAANRAIAVGDASLAVAGGVESMSRAPWVLPKPAQGFPTGHETLYSTTLGWRMVNPAMPEQWTVSHGESTEQVAATYGISRAEQDAFALRSHERAARAWAEGVFDAEITQIPGAELERDESIRETSAEKLAALKPAFRPDGTITAGNASPLWDGAAALLIGDAAAAERVGREPLARIVSRGVAAVDPDVFGIGPVQAAEIALRRAGIGWDDLSVVELNEAFAAQSLACLKLWPDLDPEIVNPNGGAIAIGHPLGASGARIVGTLAHELHRRGGGWGLAAICIGVGQGLAVVLHR
# B6: enzyme E217L/L163H/N249W (Thermobifida fusca, UniProt Q47RK4); chain MTDVYILDAVRTPFGRYGGALSGIRPDDLAAHVLRALAERSPGLDPAAVDDVFFGDANGAGEDNRNVARMAALLAGWPTSVPGVTLNRLCGSGMESVIAANRAIAVGDASLAVAGGVESMSRAPWVLPKPAQGFPTGHETLYSTTLGWRMVNPAMPEQWTVSHGESTEQVAATYGISRAEQDAFALRSHERAARAWAEGVFDAEITQIPGAELERDLSIRETSAEKLAALKPAFRPDGTITAGNASPLWDGAAALLIGDAAAAERVGREPLARIVSRGVAAVDPDVFGIGPVQAAEIALRRAGIGWDDLSVVELNEAFAAQSLACLKLWPDLDPEIVNPNGGAIAIGHPLGASGARIVGTLAHELHRRGGGWGLAAICIGVGQGLAVVLHR
# B7: CYP2C19 (Homo sapiens, UniProt P33261); chain MDPFVVLVLCLSCLLLLSIWRQSSGRGKLPPGPTPLPVIGNILQIDIKDVSKSLTNLSKIYGPVFTLYFGLERMVVLHGYEVVKEALIDLGEEFSGRGHFPLAERANRGFGIVFSNGKRWKEIRRFSLMTLRNFGMGKRSIEDRVQEEARCLVEELRKTKASPCDPTFILGCAPCNVICSIIFQKRFDYKDQQFLNLMEKLNENIRIVSTPWIQICNNFPTIIDYFPGTHNKLLKNLAFMESDILEKVKEHQESMDINNPRDFIDCFLIKMEKEKQNQQSEFTIENLVITAADLLGAGTETTSTTLRYALLLLLKHPEVTAKVQEEIERVIGRNRSPCMQDRGHMPYTDAVVHEVQRYIDLIPTSLPHAVTCDVKFRNYLIPKGTTILTSLTSVLHDNKEFPNPEMFDPRHFLDEGGNFKKSNYFMPFSAGKRICVGEGLARMELFLFLTFILQNFNLKSLIDPKDLDTTPVVNGFASVPPFYQLCFIPV
# B8: Lxyl-p1-1 V91S (Lentinula edodes, UniProt G8GLN9); chain YFSGLGLGSERSIFRRDLNSTGDESNSTQWPAPLANGGKSWASAFKKAKSTVAEMTVEELANITSGVIGLCSGVTGAVTRLGIPELCLQDGPIGPRGVHGSSQFPAGLTVAATWDRTLMYARARGMGQEFHDQGVHIALAPVTGGPLGRTPLNGRGWEGTFADPYACGEASYQSVKGLTDAGVATVSKHWIAYEQETSRNLYIEFDGVSQADIQLPISSNVDDLTMHELYMWSFAEAVRAGTNHIMCSYNRINNTHSCNNAKGLNQLLKTELNFQGGVVSDWGGQWDSVLSAENGLDVGMPGEGFLGELGDFWGTTLADLINNGTVSEDLVRDKVVRLLTGYYYLGQDINPPPPFVYNTIGAPTLNATSGYRNVRKPGTAELIKEIGSASVTLLKNTGSLPLKHPQRIAVLGNDATYNVLGPNACGLANSACDIDNLNGTLTTGGGSGSALSPYTITPLEALQKRAIEDNAEIAAVVANSNTTTGAEDAIAALLPDADVTFVFLNRYSEEGADAPDFSLGGDGDNLMDLAVTYSSNVVVVIHTTGVVDIEKWADNPNVTAILVAYLPGQEAGNSLVPVLYGDVAPSGKLPWTWGKSIDDYVPNGVVYTDAYSPQSNFTEGVFIDYRWFDKMGITPRYEFGFGLSYTTFTYSNLIVDHGRWAKDYSSVMETAEPFAEWDGTNSLYDVIFTVFATITNTGNLTGSEVAQLYISIPGDNQPVRQLRGFDKIKDLPVGDSAVVTFPIRRKDVSSWSVVDQLWYVPNGDFLISVGGSSRDLPLNTTWTP
# B9: enzyme N249W (Thermobifida fusca, UniProt Q47RK4); chain MTDVYILDAVRTPFGRYGGALSGIRPDDLAAHVLRALAERSPGLDPAAVDDVFFGDANGAGEDNRNVARMAALLAGWPTSVPGVTLNRLCGSGMESVIAANRAIAVGDASLAVAGGVESMSRAPWVLPKPAQGFPTGHETLYSTTLGWRMVNPAMPEQWTVSLGESTEQVAATYGISRAEQDAFALRSHERAARAWAEGVFDAEITQIPGAELERDESIRETSAEKLAALKPAFRPDGTITAGNASPLWDGAAALLIGDAAAAERVGREPLARIVSRGVAAVDPDVFGIGPVQAAEIALRRAGIGWDDLSVVELNEAFAAQSLACLKLWPDLDPEIVNPNGGAIAIGHPLGASGARIVGTLAHELHRRGGGWGLAAICIGVGQGLAVVLHR
# B10: CPN1 (Homo sapiens, UniProt P15169); chain VTFRHHRYDDLVRTLYKVQNECPGITRVYSIGRSVEGRHLYVLEFSDHPGIHEPLEPEVKYVGNMHGNEALGRELMLQLSEFLCEEFRNRNQRIVQLIQDTRIHILPSMNPDGYEVAAAQGPNKPGYLVGRNNANGVDLNRNFPDLNTYIYYNEKYGGPNHHLPLPDNWKSQVEPETRAVIRWMHSFNFVLSANLHGGAVVANYPYDKSFEHRVRGVRRTASTPTPDDKLFQKLAKVYSYAHGWMFQGWNCGDYFPDGITNGASWYSLSKGMQDFNYLHTNCFEITLELSCDKFPPEEELQREWLGNREALIQFLEQVHQGIKGMVLDENYNNLANAVISVSGINHDVTSGDHGDYFRLLLPGIYTVSATAPGYDPETVTVTVGPAEPTLVNFHLKRSIPQVSPVRRAPSRRHGVRAKVQPQARKKEMEMRQLQRGPA
# UniProt Q6XEC0, sequence (whole entry, looked up): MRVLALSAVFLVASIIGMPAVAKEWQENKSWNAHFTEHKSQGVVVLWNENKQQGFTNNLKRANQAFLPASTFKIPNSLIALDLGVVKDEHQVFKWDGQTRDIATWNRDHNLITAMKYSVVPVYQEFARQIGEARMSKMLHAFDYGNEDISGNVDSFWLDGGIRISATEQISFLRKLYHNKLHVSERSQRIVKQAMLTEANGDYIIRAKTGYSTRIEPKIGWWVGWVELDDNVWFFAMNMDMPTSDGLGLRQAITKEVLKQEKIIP
# UniProt G3XD23, sequence (whole entry, looked up): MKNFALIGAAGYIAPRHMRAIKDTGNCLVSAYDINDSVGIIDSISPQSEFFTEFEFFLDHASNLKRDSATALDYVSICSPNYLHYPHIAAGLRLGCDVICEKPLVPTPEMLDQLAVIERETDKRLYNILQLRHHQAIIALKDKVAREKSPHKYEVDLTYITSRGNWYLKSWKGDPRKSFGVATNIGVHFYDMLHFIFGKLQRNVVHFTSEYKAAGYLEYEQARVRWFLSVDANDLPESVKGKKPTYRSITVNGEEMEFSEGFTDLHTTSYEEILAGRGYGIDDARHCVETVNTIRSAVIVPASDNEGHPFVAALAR
# UniProt P33378, sequence (whole entry, looked up): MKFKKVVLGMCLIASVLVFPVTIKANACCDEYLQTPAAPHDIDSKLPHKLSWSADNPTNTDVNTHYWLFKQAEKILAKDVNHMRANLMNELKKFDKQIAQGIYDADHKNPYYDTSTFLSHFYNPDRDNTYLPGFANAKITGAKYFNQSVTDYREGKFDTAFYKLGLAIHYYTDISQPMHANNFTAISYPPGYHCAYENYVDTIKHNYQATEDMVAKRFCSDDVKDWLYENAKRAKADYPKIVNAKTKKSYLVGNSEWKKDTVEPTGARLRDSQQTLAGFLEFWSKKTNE
# UniProt P0A0C1, sequence (whole entry, looked up): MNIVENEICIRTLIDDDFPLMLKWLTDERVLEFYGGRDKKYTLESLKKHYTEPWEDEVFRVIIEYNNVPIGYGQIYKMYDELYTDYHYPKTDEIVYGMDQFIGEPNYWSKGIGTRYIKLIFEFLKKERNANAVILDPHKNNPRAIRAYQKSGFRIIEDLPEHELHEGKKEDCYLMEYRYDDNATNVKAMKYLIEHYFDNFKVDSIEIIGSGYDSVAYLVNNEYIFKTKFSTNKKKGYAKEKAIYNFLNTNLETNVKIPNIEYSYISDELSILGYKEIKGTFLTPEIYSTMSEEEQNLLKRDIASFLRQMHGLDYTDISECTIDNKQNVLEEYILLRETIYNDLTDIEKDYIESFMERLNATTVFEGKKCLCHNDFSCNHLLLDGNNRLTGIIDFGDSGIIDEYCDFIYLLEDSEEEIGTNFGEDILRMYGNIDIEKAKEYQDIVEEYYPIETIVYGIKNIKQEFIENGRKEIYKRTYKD
Molecule,substrate,setting,kcat/Km
B1 (enzyme N1029G),OC[C@H]1O[C@@](CO)(O[C@H]2O[C@H](CO)[C@@H](O)[C@H](O)[C@H]2O)[C@@H](O)[C@@H]1O,"pH 4.7, 37 °C",12100 M⁻¹ s⁻¹
B2 (protein),CC(=O)Oc1ccccc1,"pH 8.3, NaCl 150 mM, no saturation, with: CaCl2 1 mM",3190 M⁻¹ s⁻¹
"Cj1427c (Campylobacter jejuni, UniProt Q0P8I7)",O=C(O)CCC(=O)C(=O)O,"pH 7.4, 30 °C, apparent",4300 ± 300 M⁻¹ s⁻¹
B3 (protein N172D),O=C1CCc2ccccc2O1,"pH 8, NaCl 150 mM, no saturation, with: CaCl2 1 mM",660 M⁻¹ s⁻¹
B4 (blaNDM-1),CC(C)(O/N=C(\C(=O)N[C@@H]1C(=O)N2C(C(=O)[O-])=C(C[N+]3(CCNC(=O)c4ccc(O)c(O)c4Cl)CCCC3)CS[C@H]12)c1csc(N)n1)C(=O)O,"pH 7.5, 30 °C",191000 M⁻¹ s⁻¹ and 100000 M⁻¹ s⁻¹
B5 (enzyme L163H/N249W),CC(=O)SCCNC(=O)CCNC(=O)[C@H](O)C(C)(C)COP(=O)(O)OP(=O)(O)OC[C@H]1O[C@@H](n2cnc3c(N)ncnc32)[C@H](O)[C@@H]1OP(=O)(O)O,"pH 7.4, 37 °C",1.67 M⁻¹ s⁻¹
"wbpB (Pseudomonas aeruginosa, UniProt G3XD23)",O=C(O)CCC(=O)C(=O)O,"pH 8.5, 25 °C",4.1e+06 M⁻¹ s⁻¹
"aacA-aphD (Staphylococcus aureus, UniProt P0A0C1)",CN[C@@H]1[C@@H](O)[C@@H](O[C@@H]2[C@@H](O)[C@H](O[C@H]3OC(CNCCO)=CC[C@H]3N)[C@@H](N)C[C@H]2NC(=O)[C@@H](O)CCN)OC[C@]1(C)O,"pH 7.5, 25 °C",1800 M⁻¹ s⁻¹
"plcB (Listeria monocytogenes, UniProt P33378)",CCCCCC(=O)OC[C@H](COP(=O)([O-])OCC[N+](C)(C)C)OC(=O)CCCCC,"pH 6, 37 °C",4600 ± 1900 M⁻¹ s⁻¹
B6 (enzyme E217L/L163H/N249W),CC(C)(COP(=O)(O)OP(=O)(O)OC[C@H]1O[C@@H](n2cnc3c(N)ncnc32)[C@H](O)[C@@H]1OP(=O)(O)O)[C@@H](O)C(=O)NCCC(=O)NCCSC(=O)CC(=O)O,"pH 7.4, 37 °C",1.17 M⁻¹ s⁻¹
B7 (CYP2C19),CCOC(=O)C1(c2ccccc2)CCN(C)CC1,pH 7.4,2830 ± 500 M⁻¹ s⁻¹
B8 (Lxyl-p1-1 V91S),[H][C@]12[C@H](OC(=O)c3ccccc3)[C@]3(O)C[C@H](OC(=O)[C@H](O)[C@@H](NC(=O)c4ccccc4)c4ccccc4)C(C)=C([C@@H](O)C(=O)[C@]1(C)[C@@H](O[C@@H]1OC[C@@H](O)[C@H](O)[C@H]1O)C[C@@]1([H])OC[C@@]21OC(C)=O)C3(C)C,,6260 ± 300 M⁻¹ s⁻¹
"OXA-48 (Klebsiella pneumoniae, UniProt Q6XEC0)",O=C(Cc1cccs1)N[C@@H]1C(=O)N2C(C(=O)O)=C(/C=C/c3ccc([N+](=O)[O-])cc3[N+](=O)[O-])CS[C@H]12,"pH 7.2, 30 °C",4e+06 M⁻¹ s⁻¹
B9 (enzyme N249W),CC(C)(COP(=O)(O)OP(=O)(O)OC[C@H]1O[C@@H](n2cnc3c(N)ncnc32)[C@H](O)[C@@H]1OP(=O)(O)O)[C@@H](O)C(=O)NCCC(=O)NCCSC(=O)CCC(=O)O,"pH 7.4, 37 °C",4 M⁻¹ s⁻¹
B10 (CPN1),C[C@H](NC(=O)[C@H](Cc1ccccc1)NC(=O)[C@H](CCC(N)=O)NC(=O)CNC(=O)[C@@H]1CCCN1C(=O)[C@H](Cc1ccccc1)NC(=O)[C@@H](N)Cc1ccc(O)cc1)C(=O)N[C@@H](Cc1ccccc1)C(=O)N[C@@H](CO)C(=O)N[C@@H](CCCCN)C(=O)O,37 °C,470000 M⁻¹ s⁻¹

# For quick reference, copied from above:
Molecule,substrate,setting,kcat/Km
"aacA-aphD (Staphylococcus aureus, UniProt P0A0C1)",CN[C@@H]1[C@@H](O)[C@@H](O[C@@H]2[C@@H](O)[C@H](O[C@H]3OC(CNCCO)=CC[C@H]3N)[C@@H](N)C[C@H]2NC(=O)[C@@H](O)CCN)OC[C@]1(C)O,"pH 7.5, 25 °C",1800 M⁻¹ s⁻¹
